Published values gathered from unrelated publications.
Several values in a cell are separate wells, animals, samples, runs or records.

CC1(C)CCC(CN2CCN(c3ccc(C(=O)NS(=O)(=O)c4ccc(NCC5CCOCC5)c([N+](=O)[O-])c4)c(Oc4cnc5[nH]ccc5c4)c3)CC2)=C(c2ccc(Cl)cc2)C1 — viable cells (KCL-22; annexin V/PI flow cytometry, measured: annexin V-/PI-; 3.2 µM, 24 h): 79.9%
Nc1cccc2c1C(=O)N(C1CCC(=O)NC1=O)C2=O (stereo not shown) — viability (MM1.S resistant to compound; XTT; 3 µM): 20% and 12%
COCCN(C)C(=O)c1ccc([C@H]2[C@@H](F)[C@@H](F)C[C@@H](F)[C@H]2F)cc1 — hepatic clearance (liver microsome stability; mouse liver microsomes; 1 µM): 43 mL/min/kg
O=c1[nH]nc(OCCCc2ccc(Cl)cc2)c(NCc2cccnc2)c1Br — normalized enrichment score (HEK-293T; RNA-seq GSEA, measured: HALLMARK_ESTROGEN_RESPONSE_EARLY; concentration not given; direction not given): -1.19
O=C(/C=C/C=C/C=C/C1CCCCC1)NC1=C[C@@](O)(/C=C/C=C/C=C/C(=O)NC2=C(O)CCC2=O)[C@@H]2O[C@@H]2C1=O — GI50 (COLO-741; cell growth, CellTiter-Glo; 78 h): 17.4 µM
O=c1ccn([C@@H]2O[C@H](CO)[C@@H](O)[C@H]2O)c(=O)[nH]1 — T cell proliferation (activated human T cells; concentration not given; relative to: DMSO): 110% and 98.8% and 101% and 97.4%
COc1cnc2cccc(N3CCc4c(cc(Cn5ccnc5C)cc4-c4cn(C)nc4C(F)(F)F)C3=O)c2c1 — EC50 (HMCB; cell growth, inhibitor; 120 h): > 30 µM
Cn1cc(-c2ccc(-c3cncc(Cl)c3N3CCC4(CCNC4=O)CC3)cc2)cn1 — log2 fold change (COLO 205; gene expression, microarray, measured: NFE2L2 mRNA; concentration not given, 6 h; relative to: untreated cells): -1.16
Nc1ncnc2nc(-c3ccc(N4CCOCC4)nc3)cc(-c3cccc(Br)c3)c12 — T cell proliferation (activated human T cells; human; 316 nM): 96.9% and 93.2% and 95%
CCn1cc(-c2cc(Cn3ccnc3)cc3c2CCN([C@H](c2cc(OC)ccn2)C2CC2)C3=O)c(C(F)(F)F)n1 — EC50 (RMUGS; cell growth; 120 h): > 30 µM
CC(C)NCC(O)c1ccc(O)c(O)c1 (stereo not shown) — sarcomere length (mouse ventricular cardiomyocytes; dose not given, 0.199 s): 1.73 µm
CCn1cc(-c2cc(Cn3ccoc3=N)cc3c2CCN([C@@H](C)c2cc(OC)ccn2)C3=O)c(C(F)(F)F)n1 — EC50 (BICR16; cell growth; 120 h): 0.0557 µM
O=C(NCc1cc[nH]n1)c1ccc([C@H]2[C@@H](F)[C@@H](F)C[C@@H](F)[C@H]2F)cc1 — hepatic clearance (hepatocyte stability; cryopreserved human hepatocytes; 1 µM): 10 mL/min/kg

For quick reference, copied from above:
CC1(C)CCC(CN2CCN(c3ccc(C(=O)NS(=O)(=O)c4ccc(NCC5CCOCC5)c([N+](=O)[O-])c4)c(Oc4cnc5[nH]ccc5c4)c3)CC2)=C(c2ccc(Cl)cc2)C1 — viable cells (KCL-22; annexin V/PI flow cytometry, measured: annexin V-/PI-; 3.2 µM, 24 h): 79.9%
O=C(/C=C/C=C/C=C/C1CCCCC1)NC1=C[C@@](O)(/C=C/C=C/C=C/C(=O)NC2=C(O)CCC2=O)[C@@H]2O[C@@H]2C1=O — GI50 (COLO-741; cell growth, CellTiter-Glo; 78 h): 17.4 µM
